Experimental data from different studies.
Each line is one published result; not all experiments were run side by side.

`C=CC(=O)NC1CCN(c2ncc3ncnc(Nc4ccc(Oc5ccc6c(c5)ncn6C)c(C)c4)c3n2)CC1` has a tmax of 1 h (item: compound; healthy male volunteers, plasma; oral solution, 60 mg).
With `C[C@@H](N)C1CCN(S(=O)(=O)c2cccc3cnccc23)CC1` the tmax was 0.5 h (healthy volunteers, fasted, plasma; oral, 75 mg).
`CCOc1c([C@H](C)n2nc(C)c3c(N)ncnc32)cc(Cl)c(F)c1[C@@H]1CNC(=O)C1` gave a Tmax median of 0.5 h (patients, monotherapy; oral, 45 mg once daily, cycle 1 day 15).
For `CN(CCC(=O)O)C(=O)c1ccc2c(c1)CC[C@@H]1[C@@H]2CC[C@]2(C)C(c3cncc(F)c3)=CC[C@@H]12`, the Tmax was 2 h (premenopausal women, plasma; 60 mg once daily, after day 14, multiple dose, median).
`COc1nnc2ccc(N3CCC(c4ccc(OCCN5CCN(C)C(=O)[C@H]5C)cc4)CC3)nn12` gave a Tmax of 2.02 h (patients, plasma; oral, 10 mg twice daily, single dose, monotherapy, median).
`CO[C@H]1CC[C@H](N2C(=O)CNc3ncc(-c4ccc(C(C)(C)O)nc4)nc32)CC1` gave a Tmax of 1.5 h (patients, plasma; oral, 7.5 mg, day 15, median).
`CCCCC[C@H](O)CC[C@@H]1[C@H]2Cc3cccc(OCC(=O)O)c3C[C@H]2C[C@H]1O` has a Tmax of 0.2 h (LC-MS/MS; Japanese PAH patients, no background therapy, plasma; inhaled, 54 µg, mean).
`O=C(Nc1cnccc1Cl)N1CCN(Cc2ccc3c(c2)OC(F)(F)O3)CC1` gave a tmax (median) of 1 h (healthy young men, plasma; oral, 10 mg once daily, day 10).
The Tmax of `O=C(c1cccnc1-c1ccncc1)N1CCC(O)(Cc2ccccc2)CC1` is reported as 0.75 h (healthy Japanese adults, plasma; oral, 100 mg twice daily, day 1, median).
With `C[C@H]1CN(C(=O)CC#N)[C@]12CCN(c1ncnc3[nH]ccc13)C2` the Tmax was 1 h (healthy Japanese males, plasma; oral, 50 mg single dose).
`N#CC[C@H](C1CCCC1)n1cc(-c2ncnc3[nH]ccc23)cn1` has a Tmax range of 1 to 4 h (children, plasma; oral, after first dose, all dose levels).
With `O=C([O-])CCCCCCCNC(=O)c1ccccc1O.[Na+]` the tmax was 0.5 h (healthy postmenopausal women; 300 mg, oral contraceptive alone, median).
